Measured values gathered from unrelated publications.
Protocols differ between the studies behind these lines. ≈ marks a conversion by molar mass, not a printed value.
Organism: Mycolicibacterium smegmatis

The MIC of `CN[C@@H]1[C@H](O)[C@H](NC)[C@H]2O[C@]3(O)[C@H](O[C@@H]2[C@H]1O)O[C@H](C)C[C@H]3NC(=O)Cc1ccccn1` is reported as 25 µg/mL.
`CCc1nc2ccc(C(F)(F)F)cn2c1C(=O)NCc1ccc2oc(-c3ccc(Cl)cc3)nc2c1` gave an MIC90 of > 100 µM.
For `Cc1ccc2nc(C)c(C(=O)C(=O)NCc3ccccc3)n2c1`, the inhibition zone was 0 mm (microbial growth; MC2155; 2 mM, 20 h).
With `CC(C)[C@H]1NC(=O)[C@H](Cc2ccccc2)NC(=O)[C@@H](C(C)C)NC(=O)[C@@H](C)NC(=O)[C@H](CO)NC(=O)[C@@H](Cc2c(-c3ccc(-c4ccc5ccccc5c4)cc3)[nH]c3ccccc23)NC(=O)[C@@H](CO)NC1=O` the MIC90 was > 100 µM.
`CCc1nc2ccc(Br)cn2c1C(=O)NCc1ccc2oc(-c3ccc(Cl)cc3)nc2c1` gave an MIC90 of > 100 µM.
For `CCc1ccn2c(C(=O)N(C)Cc3ccccc3)c(C)nc2c1`, the inhibition zone was 0 mm (microbial growth; MC2155; 2 mM, 20 h).
`CC(C)[C@H]1NC(=O)[C@H](Cc2ccc(O)cc2)NC(=O)[C@@H](C(C)C)NC(=O)[C@@H](C)NC(=O)[C@H](CO)NC(=O)[C@@H](Cc2c(-c3ccc(-c4ccc5ccccc5c4)cc3)[nH]c3ccccc23)NC(=O)[C@@H](CO)NC1=O` gave an MIC90 of 100 µM (≈ 99.5 µg/mL).
With `Cc1ccc(-c2nc3ccc(C)cn3c2CC(=O)NCc2ccc(N(C)C)cc2)cc1` the MIC was > 50 µM (microbial growth, broth dilution).
For `CCc1nc2cc(C(F)(F)F)ccn2c1C(=O)NCc1ccc2oc(-c3ccc(Cl)cc3)nc2c1`, the MIC was > 50 µM (72 h).
For `Cc1ccc2nc(C)c(C(=O)NCc3ccccc3)n2c1`, the inhibition zone was 26 mm (microbial growth; MC2155; 2 mM).
The MIC90 of `CC(C)[C@H]1NC(=O)[C@H](Cc2ccccc2)NC(=O)[C@@H](C(C)C)NC(=O)[C@@H](C)NC(=O)[C@H](CO)NC(=O)[C@@H](Cc2c(-c3ccc(-c4cccc5ccccc45)cc3)[nH]c3ccccc23)NC(=O)[C@@H](CO)NC1=O` is reported as > 100 µM.
`Cc1ccc2nc(C)c(C(=O)C(=O)N(C)C)n2c1` has an inhibition zone of 0 mm (microbial growth; MC2155; 2 mM, 20 h).
`CCc1nc2ccc(Cl)cn2c1C(=O)NC/C=C(\C)CC/C=C(\C)CCC=C(C)C` gave an MIC90 of > 100 µM.
The MIC50 of `Cc1cc(=O)oc2cc(OCCCCn3cc(COc4ccc(N5C(N)=NC(N)=NC56CCCCC6)cc4)nn3)ccc12` is reported as 0.7 µM (≈ 0.409 µg/mL) (microbial growth; ATCC700084 MC2155).
`CC(C)[C@H]1NC(=O)[C@H](Cc2ccccc2)NC(=O)[C@@H](C(C)C)NC(=O)[C@@H](C)NC(=O)[C@H](CO)NC(=O)[C@@H](Cc2c(-c3ccc(C4CCCCC4)cc3)[nH]c3ccccc23)NC(=O)[C@@H](CO)NC1=O` has an MIC90 of > 100 µM.
`CCc1ccn2c(C(=O)NCc3ccc(C)cc3)c(C)nc2c1` has an inhibition zone of 0 mm (microbial growth; MC2155; 2 mM).
The MIC of `Cc1nc2ccc(C(F)(F)F)cn2c1C(=O)NCc1ccc2oc(-c3ccc(Cl)cc3)nc2c1` is reported as > 100 µM (72 h).
The MIC50 of `NC1=NC2(CCCCC2)N(c2ccc(OCc3cn(CCCCOc4ccc(CCC(=O)O)c(O)c4)nn3)cc2)C(N)=N1` is reported as 0.7 µM (≈ 0.413 µg/mL) (microbial growth; ATCC700084 MC2155).
`CC(C)[C@H]1NC(=O)[C@H](Cc2ccccc2)NC(=O)[C@@H](C(C)C)NC(=O)[C@@H](C)NC(=O)[C@H](CO)NC(=O)[C@@H](Cc2c(-c3ccc(-c4ccccc4)cc3)[nH]c3ccccc23)NC(=O)[C@@H](CO)NC1=O` gave an MIC90 of > 100 µM.
With `Cc1nc2cc(C(F)(F)F)ccn2c1C(=O)NCc1ccc2oc(-c3ccc(Cl)cc3)nc2c1` the MIC90 was > 100 µM.
With `CC(C)[C@H]1NC(=O)[C@H](Cc2ccccc2)NC(=O)[C@@H](C(C)C)NC(=O)[C@@H](C)NC(=O)[C@H](CO)NC(=O)[C@@H](Cc2c(-c3ccc(-c4ccc5ccccc5c4)cc3)[nH]c3ccccc23)NC(=O)[C@@H](C)NC1=O` the MIC90 was 100 µM (≈ 96.3 µg/mL).
`CCc1nc2cc(Br)ccn2c1C(=O)NCc1ccc2oc(-c3ccc(OC(F)(F)F)cc3)nc2c1` has an MIC90 of > 100 µM.
The inhibition zone of `Cc1ccc2nc(C)c(CC(=O)NCc3ccc(N(C)C)cc3)n2c1` is reported as 20 mm (microbial growth; MC2155; 2 mM, 20 h).
For `CCc1nc2cc(OC(F)(F)F)ccn2c1C(=O)NCc1ccc2oc(-c3ccc(OC(F)(F)F)cc3)nc2c1`, the MIC was > 50 µM (72 h).
With `COc1ccc(-c2[nH]c3ccccc3c2C[C@H]2NC(=O)[C@@H](CO)NC(=O)[C@@H](C(C)C)NC(=O)[C@H](Cc3ccccc3)NC(=O)[C@@H](C(C)C)NC(=O)[C@@H](C)NC(=O)[C@H](CO)NC2=O)c(OC)c1` the MIC90 was > 100 µM.

A few entries again:
For `Cc1ccc2nc(C)c(C(=O)C(=O)NCc3ccccc3)n2c1`, the inhibition zone was 0 mm (microbial growth; MC2155; 2 mM, 20 h).
With `CC(C)[C@H]1NC(=O)[C@H](Cc2ccccc2)NC(=O)[C@@H](C(C)C)NC(=O)[C@@H](C)NC(=O)[C@H](CO)NC(=O)[C@@H](Cc2c(-c3ccc(-c4ccc5ccccc5c4)cc3)[nH]c3ccccc23)NC(=O)[C@@H](CO)NC1=O` the MIC90 was > 100 µM.
`CCc1nc2ccc(Br)cn2c1C(=O)NCc1ccc2oc(-c3ccc(Cl)cc3)nc2c1` gave an MIC90 of > 100 µM.
For `CCc1ccn2c(C(=O)N(C)Cc3ccccc3)c(C)nc2c1`, the inhibition zone was 0 mm (microbial growth; MC2155; 2 mM, 20 h).
